{"data": "Published values collected from several papers", "note": "Protocols differ between the studies behind these lines. Values joined by “and” are separate records of one study, mostly repeats; a detail may differ. ± marks the error that the study gave."}
{"SMILES": "N.N.[Cl][Pt][Cl]", "system": "SAS xenograft, KSN/Slc nude mice", "setting": "dose not given, day 2, group mean", "endpoint": "tumour volume", "result": "105 mm3"}
{"SMILES": "Cc1cn(-c2cc(NC(=O)c3ccc(C)c(Nc4nccc(-c5cccnc5)n4)c3)cc(C(F)(F)F)c2)cn1", "system": "Homo sapiens", "setting": "300 mg, 12 months", "how to read": "direction not given", "endpoint": "NPI score", "result": "6.3 ± 6.4"}
{"SMILES": "C[C@H]1O[C@@H](O[C@H]2CC[C@@]3(C)[C@@H](CC[C@]4(C)[C@@H]3C=C[C@]35OC[C@@]6(CCC(C)(C)C[C@H]63)[C@@H](O)C[C@]54C)[C@]2(C)CO)[C@H](O)[C@@H](O[C@@H]2O[C@H](CO)[C@@H](O)[C@H](O)[C@H]2O)[C@H]1O", "system": "mouse, no ethanol, hepatic SIRT1 knockdown, liver", "setting": "dose not given, high dose", "endpoint": "hepatic triglycerides", "result": "0.112 mmol/g protein and 0.0672 mmol/g protein and 0.0862 mmol/g protein and 0.059 mmol/g protein and 0.0387 mmol/g protein and 0.0741 mmol/g protein"}
{"SMILES": "O=C(O)/C=C/C(=O)O.Oc1cccc2[nH]cc(CCNCc3ccccc3)c12", "system": "C57BL/6J mice", "setting": "subcutaneous, 3 mg/kg", "endpoint": "head twitch count", "result": "26.8 ± 1.3"}
{"SMILES": "c1ccc2c(c1)Nc1ccccc1S2", "system": "CT26 tumour-bearing mice", "setting": "intraperitoneal, 100 mg/kg equivalents daily, day 6", "endpoint": "tumour volume", "result": "736 mm³"}
{"SMILES": "CN1CCN(S(=O)(=O)c2cc([N+](=O)[O-])ccc2N(CCOS(C)(=O)=O)CCOS(C)(=O)=O)CC1", "system": "NSG mice, sample CA PDX", "setting": "intraperitoneal, 25 mg/kg weekly x3", "how to read": "baseline: vehicle", "endpoint": "EFS delay (T-C)", "result": "58.5 days"}
{"SMILES": "CC[C@H](C)[C@@H]1NC(=O)[C@@H]2CCCN2C(=O)[C@H](CC(C)C)NC(=O)[C@H](CC(C)C)NC(=O)CNC(=O)[C@@H](NC(=O)[C@@H](NC(=O)[C@H](CC(=O)O)NC(=O)CNC(=O)[C@@H](NC(=O)[C@H](C)NC(=O)CNC(=O)[C@H](CCCCN)NC(=O)[C@H](CC(C)C)NC(=O)[C@H](CC(C)C)NC(=O)[C@H](CCCCN)NC(=O)CNC(=O)[C@@H](NC(=O)[C@@H](N)CC(C)C)C(C)C)C(C)C)C(C)C)CSSC[C@@H](C(=O)O)NC1=O", "test": "RNA-seq, measured: Apof mRNA", "system": "mouse traumatic brain injury, frontal cortex and hippocampus", "setting": "dose not given", "how to read": "baseline: TBI plus compound vs TBI", "endpoint": "log2 fold change", "result": -3.4}
{"SMILES": "CCCCC1(CCCC)CN(c2ccccc2)c2cc(SC)c(OCC(=O)N[C@@H](C(=O)NCC(=O)O)c3ccccc3)cc2S(=O)(=O)C1", "test": "measured: LDL cholesterol", "system": "human, serum", "setting": "15 mg once daily, day 5", "endpoint": "serum LDL-C", "result": "79.6 mg/dL"}
